Experimental data from different studies.
Each line is one published result; not all experiments were run side by side. Several values in a cell are separate wells, animals, samples, runs or records. Numbers after ± are the reported error.
Oprm1: Mu-type opioid receptor (Oprm1, Rattus norvegicus, UniProt P33535)
UniProt P33535, sequence (whole entry, looked up): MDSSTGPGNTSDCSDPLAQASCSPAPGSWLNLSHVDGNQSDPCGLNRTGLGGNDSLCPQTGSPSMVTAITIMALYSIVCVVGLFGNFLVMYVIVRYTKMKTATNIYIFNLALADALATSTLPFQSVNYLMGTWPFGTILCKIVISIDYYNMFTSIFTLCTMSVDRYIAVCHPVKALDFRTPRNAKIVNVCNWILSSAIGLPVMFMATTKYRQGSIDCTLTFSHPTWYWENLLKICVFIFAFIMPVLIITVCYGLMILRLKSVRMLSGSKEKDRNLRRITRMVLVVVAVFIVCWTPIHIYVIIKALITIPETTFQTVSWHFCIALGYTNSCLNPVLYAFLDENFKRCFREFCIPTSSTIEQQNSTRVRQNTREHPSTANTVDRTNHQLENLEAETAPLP
lasR: Transcriptional activator protein LasR (lasR, Pseudomonas aeruginosa, UniProt P25084)
sdiA: Regulatory protein SdiA (sdiA, Escherichia coli, UniProt P07026)
UniProt P07026, sequence (whole entry, looked up): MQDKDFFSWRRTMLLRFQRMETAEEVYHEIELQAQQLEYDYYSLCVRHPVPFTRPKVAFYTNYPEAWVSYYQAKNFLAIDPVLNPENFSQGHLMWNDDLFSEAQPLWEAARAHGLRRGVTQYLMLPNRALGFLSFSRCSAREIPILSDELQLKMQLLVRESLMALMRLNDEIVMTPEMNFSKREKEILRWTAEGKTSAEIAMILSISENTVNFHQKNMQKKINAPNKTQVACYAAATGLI
Uncharacterized hydrolase SAUSA300_2518: Uncharacterized hydrolase SAUSA300_2518 (Staphylococcus aureus, UniProt Q2FDS6)
UniProt D0VWV4, sequence (whole entry, looked up): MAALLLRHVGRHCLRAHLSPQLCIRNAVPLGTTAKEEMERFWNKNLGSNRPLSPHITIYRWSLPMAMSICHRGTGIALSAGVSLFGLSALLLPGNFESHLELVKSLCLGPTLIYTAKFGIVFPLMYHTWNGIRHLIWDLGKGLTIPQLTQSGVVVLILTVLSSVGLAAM
UniProt Q007T0, sequence (whole entry, looked up): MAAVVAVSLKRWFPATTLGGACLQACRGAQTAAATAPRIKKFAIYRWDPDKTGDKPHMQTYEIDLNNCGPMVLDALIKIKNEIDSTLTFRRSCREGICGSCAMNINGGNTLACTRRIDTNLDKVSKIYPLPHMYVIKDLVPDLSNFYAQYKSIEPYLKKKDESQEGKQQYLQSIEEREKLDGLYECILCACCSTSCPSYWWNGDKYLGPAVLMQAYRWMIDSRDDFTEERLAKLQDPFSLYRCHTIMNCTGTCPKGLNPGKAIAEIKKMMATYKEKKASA
UniProt A5GZW8, sequence (whole entry, looked up): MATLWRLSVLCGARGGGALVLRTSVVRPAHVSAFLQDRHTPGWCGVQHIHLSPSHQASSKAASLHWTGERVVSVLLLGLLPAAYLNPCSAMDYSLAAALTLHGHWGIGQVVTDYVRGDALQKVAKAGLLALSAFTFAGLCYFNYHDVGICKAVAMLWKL
UniProt Q9Y2J8, sequence (whole entry, looked up): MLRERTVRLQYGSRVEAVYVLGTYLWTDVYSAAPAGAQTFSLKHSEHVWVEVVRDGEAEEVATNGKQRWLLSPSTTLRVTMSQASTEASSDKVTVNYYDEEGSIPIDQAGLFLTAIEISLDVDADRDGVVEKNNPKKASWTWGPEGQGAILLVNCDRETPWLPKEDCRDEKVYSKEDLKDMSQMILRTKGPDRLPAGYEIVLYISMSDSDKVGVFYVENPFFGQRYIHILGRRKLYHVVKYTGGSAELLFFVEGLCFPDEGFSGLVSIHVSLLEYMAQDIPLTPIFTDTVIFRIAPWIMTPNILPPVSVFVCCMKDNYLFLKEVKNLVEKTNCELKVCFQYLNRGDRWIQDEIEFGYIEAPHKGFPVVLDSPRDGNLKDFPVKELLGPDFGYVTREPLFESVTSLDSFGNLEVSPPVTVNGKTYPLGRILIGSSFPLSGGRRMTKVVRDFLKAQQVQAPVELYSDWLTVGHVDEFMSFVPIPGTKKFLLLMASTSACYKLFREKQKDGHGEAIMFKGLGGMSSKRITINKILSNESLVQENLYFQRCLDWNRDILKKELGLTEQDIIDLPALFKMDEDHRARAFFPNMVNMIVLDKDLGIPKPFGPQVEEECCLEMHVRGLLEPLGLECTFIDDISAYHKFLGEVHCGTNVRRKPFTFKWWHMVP
UniProt Q05513, sequence (whole entry, looked up): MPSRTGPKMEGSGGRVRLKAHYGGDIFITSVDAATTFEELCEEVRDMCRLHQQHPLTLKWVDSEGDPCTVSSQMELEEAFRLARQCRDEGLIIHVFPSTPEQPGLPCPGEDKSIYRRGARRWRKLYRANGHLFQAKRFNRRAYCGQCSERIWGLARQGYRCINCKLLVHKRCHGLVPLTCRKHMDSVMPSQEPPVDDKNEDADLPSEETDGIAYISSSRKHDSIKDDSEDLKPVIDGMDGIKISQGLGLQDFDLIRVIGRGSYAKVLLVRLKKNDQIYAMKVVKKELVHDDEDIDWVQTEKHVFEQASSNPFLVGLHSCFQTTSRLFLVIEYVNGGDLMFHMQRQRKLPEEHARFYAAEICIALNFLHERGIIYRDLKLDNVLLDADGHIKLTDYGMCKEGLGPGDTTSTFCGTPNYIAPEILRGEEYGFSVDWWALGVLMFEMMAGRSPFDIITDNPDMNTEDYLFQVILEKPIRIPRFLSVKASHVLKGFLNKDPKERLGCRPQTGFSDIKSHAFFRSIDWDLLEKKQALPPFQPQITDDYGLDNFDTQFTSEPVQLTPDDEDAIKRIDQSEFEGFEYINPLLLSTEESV
UniProt Q6DWJ6, sequence (whole entry, looked up): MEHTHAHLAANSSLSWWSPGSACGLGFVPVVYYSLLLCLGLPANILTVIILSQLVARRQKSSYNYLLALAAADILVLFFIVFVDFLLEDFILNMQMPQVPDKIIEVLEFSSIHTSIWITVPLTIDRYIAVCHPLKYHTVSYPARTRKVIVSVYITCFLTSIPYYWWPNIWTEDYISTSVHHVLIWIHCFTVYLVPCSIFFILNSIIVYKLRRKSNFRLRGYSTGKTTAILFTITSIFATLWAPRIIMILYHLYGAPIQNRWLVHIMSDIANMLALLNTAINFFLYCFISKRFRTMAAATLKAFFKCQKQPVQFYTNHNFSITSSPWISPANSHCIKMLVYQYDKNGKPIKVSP
UniProt Q14145, sequence (whole entry, looked up): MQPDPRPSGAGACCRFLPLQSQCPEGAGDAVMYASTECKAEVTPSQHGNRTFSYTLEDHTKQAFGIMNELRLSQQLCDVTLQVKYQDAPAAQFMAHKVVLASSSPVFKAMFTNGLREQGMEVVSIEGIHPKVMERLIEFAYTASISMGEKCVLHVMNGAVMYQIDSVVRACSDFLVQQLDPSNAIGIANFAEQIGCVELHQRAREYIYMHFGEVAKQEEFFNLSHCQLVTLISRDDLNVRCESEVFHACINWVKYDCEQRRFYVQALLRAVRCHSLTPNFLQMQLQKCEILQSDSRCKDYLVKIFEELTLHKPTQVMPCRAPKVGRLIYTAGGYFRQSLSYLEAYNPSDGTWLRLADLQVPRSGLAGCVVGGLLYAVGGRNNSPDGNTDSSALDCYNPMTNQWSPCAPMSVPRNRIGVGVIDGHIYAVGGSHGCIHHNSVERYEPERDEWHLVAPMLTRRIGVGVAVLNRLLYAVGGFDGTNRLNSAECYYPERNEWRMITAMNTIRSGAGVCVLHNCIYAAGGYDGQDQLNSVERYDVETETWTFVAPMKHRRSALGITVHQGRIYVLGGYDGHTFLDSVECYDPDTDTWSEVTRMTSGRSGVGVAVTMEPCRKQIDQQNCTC
UniProt Q8K1N1, sequence (whole entry, looked up): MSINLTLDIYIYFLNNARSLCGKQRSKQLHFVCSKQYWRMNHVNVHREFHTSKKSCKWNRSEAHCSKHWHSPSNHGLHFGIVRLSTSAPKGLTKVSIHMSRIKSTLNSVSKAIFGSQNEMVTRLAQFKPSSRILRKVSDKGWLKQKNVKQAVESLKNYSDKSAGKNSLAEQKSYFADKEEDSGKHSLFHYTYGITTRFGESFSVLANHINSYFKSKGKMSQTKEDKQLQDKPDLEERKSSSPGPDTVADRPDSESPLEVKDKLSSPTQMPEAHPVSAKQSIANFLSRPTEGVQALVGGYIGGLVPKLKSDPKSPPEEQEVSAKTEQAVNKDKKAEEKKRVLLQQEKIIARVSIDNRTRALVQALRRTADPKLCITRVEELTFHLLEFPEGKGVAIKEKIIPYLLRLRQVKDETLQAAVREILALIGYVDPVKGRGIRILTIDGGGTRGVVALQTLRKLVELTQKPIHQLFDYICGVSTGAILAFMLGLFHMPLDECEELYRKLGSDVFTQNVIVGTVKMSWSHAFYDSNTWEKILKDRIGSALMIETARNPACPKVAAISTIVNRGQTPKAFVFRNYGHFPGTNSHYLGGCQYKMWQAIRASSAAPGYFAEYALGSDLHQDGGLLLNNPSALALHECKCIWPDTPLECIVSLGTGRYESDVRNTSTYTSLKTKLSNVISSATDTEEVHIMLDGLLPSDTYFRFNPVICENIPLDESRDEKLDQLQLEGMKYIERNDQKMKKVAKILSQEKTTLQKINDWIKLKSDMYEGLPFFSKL
UniProt P30048, sequence (whole entry, looked up): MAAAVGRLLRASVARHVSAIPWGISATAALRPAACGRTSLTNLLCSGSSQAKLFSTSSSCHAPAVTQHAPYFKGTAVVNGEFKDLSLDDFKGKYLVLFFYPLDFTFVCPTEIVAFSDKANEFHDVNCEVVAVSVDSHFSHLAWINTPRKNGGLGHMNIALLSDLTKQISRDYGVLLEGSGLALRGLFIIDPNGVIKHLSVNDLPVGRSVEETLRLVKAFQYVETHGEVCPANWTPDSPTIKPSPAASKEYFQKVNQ
UniProt Q8TDX7, sequence (whole entry, looked up): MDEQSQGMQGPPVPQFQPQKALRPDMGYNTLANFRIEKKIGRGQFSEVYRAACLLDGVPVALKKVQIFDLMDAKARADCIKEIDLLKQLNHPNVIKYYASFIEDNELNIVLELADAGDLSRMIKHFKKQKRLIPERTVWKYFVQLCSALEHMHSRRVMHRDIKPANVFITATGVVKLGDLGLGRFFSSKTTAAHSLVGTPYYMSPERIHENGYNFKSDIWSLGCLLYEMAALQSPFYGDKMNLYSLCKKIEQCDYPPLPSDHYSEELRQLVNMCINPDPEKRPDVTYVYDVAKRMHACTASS

CC(C)[C@H]1NC(=O)C[C@H]2/C=C/CCSSC[C@@H](NC1=O)C(=O)N[C@H](Cc1cccc3ccccc13)C(=O)NCC(=O)O2 — inhibition (Protein kinase C beta type, isoform beta-I (PRKCB, Homo sapiens, UniProt P05771); 10 µM): 1%
CC[C@H](C)[C@H](NC(=O)[C@H](CCCNC(=N)N)NC(=O)[C@H](CCCNC(=N)N)NC(=O)[C@H](CC(C)C)NC(=O)[C@H](Cc1ccccc1)NC(=O)CNC(=O)CNC(=O)[C@@H](N)Cc1ccc(O)cc1)C(=O)N[C@@H](CCCNC(=N)N)C(=O)N1CCC[C@H]1C(=O)N[C@@H](CCCCN)C(=O)N[C@@H](CC(C)C)C(=O)N[C@@H](CCCCN)C(=O)O — Emax (Probable G-protein coupled receptor 139 (GPR139, Homo sapiens, UniProt Q6DWJ6); GαoA activation, agonist, BRET; HEK293T/17; 40 µM): 92.2% and 91.9%
COCC1CCCCN1C(=O)n1cc(C(O)(c2ccccc2)c2ccccc2)nn1 (stereo not drawn) — SILAC activity ratio (Pnpla8 (Mus musculus, UniProt Q8K1N1); probe labelling, inhibitor, competitive ABPP-SILAC; mouse T cells; concentration not given, 4 h, single peptide; reference: treated over DMSO cells, lower = stronger inhibition): 1.28 and 1.31
C[C@@H](O)[C@@H]1CN([C@@H](CC2CCCCC2)CN2CCC[C@H]2CN2CCNC[C@@H]2CO)CCN1CCC12CC3CC(CC(C3)C1)C2 — remaining binding (Oprm1; radioligand binding; rat brain membranes; 500 nM, pH 7.5, 25 °C, together with: 0.87 nM [3H]DAMGO): 107 ± 10.6%
C=CC(=O)NC[C@H](NC(=O)[C@H](CC1CCCCC1)NC(=O)[C@H](CCC(N)=O)NC(C)=O)C(=O)N[C@@H](CC(C)C)C(=O)N[C@@H](Cc1ccccc1)C(=O)O — -TΔS (Beta sliding clamp (Escherichia coli, UniProt P0A988); binding, isothermal titration calorimetry; 25 °C): 3.7 kcal/mol
COc1ccccc1-c1n[nH]c2nc(N[C@H]3CC[C@H](NS(=O)(=O)CC(C)C)CC3)ncc12 — remaining binding (cdc2-related kinase 12 (Leishmania donovani, UniProt A0A3S7WQK2); Kinobeads competition; Leishmania donovani extract; 10 µM, unit not given; reference: vehicle): 0.06
CN(C)[C@H]1C[C@@]23CC[C@@]4(O2)C(=CC[C@]2(C)[C@@H](c5ccc6ccncc6c5)CC[C@H]24)C=C3[C@@H](O)[C@@H]1O — inhibition (Phosphatidylinositol 4-kinase type 2-beta (PI4K2B, Homo sapiens, UniProt Q8TCG2); ATP probe labelling, inhibitor, KiNativ profiling; 0.1 µM): -3.4%
O=C(Cc1ccc(Br)cc1)N[C@H]1CCOC1=O — potency ratio (lasR; reporter gene, antagonist; reference: IC50 PAO-JP2 over E. coli JLD271): 33
O=C1NC(=O)c2c1c1cc(F)c[n+]3c1c1c2c2cc(O)ccc2[n]1[Ru-4]312([N]=C=S)[S+]3CC[S+]1CC[S+]2CC3 (stereo not drawn) — remaining activity (Ephrin type-A receptor 3 (EPHA3, Homo sapiens, UniProt P29320); enzyme activity; 100 nM, human enzyme, together with: 10 µM ATP; reference: untreated): 110%
CCCC(=O)N[C@H]1CCSC1=O — Emax (sdiA): 117%
CC=C1CN2CCc3c([nH]c4ccccc34)C2CC1C(=COC)C(=O)OC (stereo not drawn) — SPR response (Thioredoxin-dependent peroxide reductase, mitochondrial (PRDX3, Homo sapiens, UniProt P30048); binding; 20 µM): ~50 RU
CCCCCC(=O)CC(=O)N[C@H]1CCOC1=O — agonist activity (lasR; reporter gene, agonist; Pseudomonas aeruginosa PAO-JP2; 100 µM, plasI-LVAgfp reporter; reference: OdDHL at same concentration): 21%
Cc1cc(C)cc(COc2cc3c(cc2OCc2cc(C)cc(C)c2)C2CC(O)(Cc4cn(CCOCCOCCOCCOCC(=O)Nc5cccc6c5C(=O)N(C5CCC(=O)NC5=O)C6=O)nn4)CC(C)N2CC3)c1 (racemic) — degradation (Rab GDP dissociation inhibitor beta (Homo sapiens, UniProt P50395); degrader, Western blot; PC-3; 2 µM, 24 h): 6%
COc1cc2c(cc1S(=O)(=O)F)C(=O)NCCC2 — remaining activity (Uncharacterized hydrolase SAUSA300_2518; enzyme activity, inhibitor, fluorogenic substrate; 50 µM): 95.4% and 90.5% and 94.6%
CON(C(=O)c1cn(C)nc1C(F)F)C(C)Cc1c(Cl)cc(Cl)cc1Cl (stereo not drawn) — reaction velocity (SDHD/SDHC/SDHB (Sus scrofa, UniProt A5GZW8+D0VWV4+Q007T0); enzyme activity, inhibitor, DCIP reduction; pig; 0.6 µM, together with: DCIP 120 µM): 0.0108 µM/s and 0.0107 µM/s
CCCCCC(O)CC(=O)N[C@H]1CCOC1=O (stereo partly drawn) — Emax (sdiA): 79.2%
CN1CCCN(C(=O)c2ccc(S(=O)(=O)F)cc2)c2ccccc21 — remaining activity (Uncharacterized hydrolase SAUSA300_2518; enzyme activity, inhibitor, fluorogenic substrate; 0.5 µM): 113% and 112%
CC(C)CC(O)(CC(C)C)c1cn(C(=O)N2CCCC2)nn1 — SILAC ratio (Dipeptidyl peptidase 8 (Dpp8, Mus musculus, UniProt Q80YA7); probe labelling, inhibitor, competitive ABPP-SILAC, refers to: Dpp8; mouse T cells; concentration not given, 4 h, in situ, protein level; reference: treated over DMSO, lower = more inhibition): 1.33
CCCC[C@H]1CNCCN1C[C@@H]1CCCN1C[C@H](CC1CCCCC1)N1CCN(CCCC2CCCC2)[C@H]([C@H](C)CC)C1 — remaining binding (Oprm1; radioligand binding; rat brain membranes; 500 nM, pH 7.5, 25 °C, together with: 0.87 nM [3H]DAMGO): 97.8 ± 7.32%
[CH3][Ti+2][O]C(=O)c1ccc([S][Au][PH](c2ccccc2)(c2ccccc2)c2ccccc2)cc1.c1cc[cH-]c1.c1cc[cH-]c1 — remaining activity (Protein kinase C zeta type (PRKCZ, Homo sapiens, UniProt Q05513); kinase activity, HotSpot radiometric; 1 µM, together with: ATP 10 µM; reference: vehicle): 108% and 106%
CCCCCCCCCC(=O)CC(=O)Nc1cccc(OC)c1 — agonist activity (lasR; reporter gene, agonist; Pseudomonas aeruginosa PAO-JP2; 100 µM, plasI-LVAgfp reporter; reference: OdDHL at same concentration): 1%
Oc1ccc(C[C@@H]2CN([C@@H](CC3CCCCC3)CN3CCC[C@H]3CN3CCNC[C@@H]3Cc3ccc4ccccc4c3)CCN2CCc2ccc(Cl)c(Cl)c2)cc1 — remaining binding (Oprm1; radioligand binding; rat brain membranes; 500 nM, pH 7.5, 25 °C, together with: 0.87 nM [3H]DAMGO): 113 ± 6.78%
Cc1ccc(NC(=O)CCc2cccc(NC3=CC(=O)N(C4CCC(=O)NC4=O)C3=O)c2)cc1Cl (stereo not drawn) — log2 fold change (Cereblon/Casein kinase I alpha (CSNK1A1/CRBN, Homo sapiens, UniProt P48729+Q96SW2); degrader, quantitative proteomics, refers to: protein abundance; human regulatory T cells; 1 µM, 4 h; reference: DMSO): -1.11
COC(=O)[C@@H](NC(=O)c1nn(Cc2ccc(F)cc2)c2cc(OCCCCNC(=N)N)ccc12)C(C)(C)C — β-arrestin-2 recruitment (Cannabinoid receptor 1 (CNR1, Homo sapiens, UniProt P21554); BRET; concentration not given; reference: FUB over compound, fold lower activation): ~3.5 fold
CC(C)[C@@H]1NC(=O)[C@H](CCC(=O)O)NC(=O)CNC(=O)[C@H]([C@@H](C)O)NC(=O)[C@H](CCC(=O)O)NC(=O)[C@H](CCC(=O)O)NC(=O)[C@H](CC(=O)O)NC(=O)[C@H](C(C)C)NC(=O)[C@H]([C@@H](C)O)NC(=O)CNC(=O)[C@H](CC(=O)O)NC(=O)[C@H](CC(N)=O)NC(=O)[C@H](Cc2ccc(O)cc2)NC1=O — fluorescence polarization (Kelch-like ECH-associated protein 1 (KEAP1, Homo sapiens, UniProt Q14145); Keap1-Nrf2 binding, inhibitor, competitive FP; 0.0244 µM, 30 min, together with: Nrf2 peptide probe; lower = stronger inhibition): 1.08 a.u. and 1.01 a.u.
CCCCCCCCCNC(=O)CC(=O)c1ccccc1 — agonist activity (lasR; reporter gene, agonist; Pseudomonas aeruginosa PAO-JP2; 100 µM, plasI-LVAgfp reporter; reference: OdDHL at same concentration): 3%
CS(C)(=O)=Nc1ccc(-c2ccc(-c3nc4cc(O[C@@H]5CO[C@H]6[C@@H]5OC[C@H]6O)[nH]c4cc3F)cc2)cc1 — inhibition (Serine/threonine-protein kinase Nek7 (NEK7, Homo sapiens, UniProt Q8TDX7); enzyme activity, inhibitor; 10 µM): -3%
CC(C)C[C@@H](N)C(=O)NCC(=O)N[C@H](C)C(=O)N[C@H](CO)C(=O)N[C@H](Cc1c[nH]c2ccccc12)C(=O)N[C@H](Cc1c[nH]cn1)C(=O)N[C@H](CCCNC(=N)N)C(=O)N1CCC[C@@H]1C(=O)N[C@H](CC(=O)O)C(=O)N[C@H](CCCCN)C(=O)N[C@H](CCCCN)C(=O)N[C@H](CCCNC(=N)N)C(=O)NCCCCCC(=O)N[C@H](CCCCN)C(=O)N[C@H](CCCNC(=N)N)C(=O)N[C@H](CCCCN)C(=O)N[C@H](CCC(N)=O)C(=O)N[C@H](CCCNC(=N)N)C(=O)NCC(=O)N1CCC[C@@H]1C(=O)NCC(=O)N[C@H](CCCNC(=N)N)C(=O)N[C@H](C)C(=O)N[C@H](Cc1ccccc1)C(N)=O — cell migration (C-X-C chemokine receptor type 4 (CXCR4, Homo sapiens, UniProt P61073); chemotaxis, antagonist; SUP-T1; 10 µM, together with: SDF-1alpha): inhibited
N[C@H](C(=O)N1CCCC1)C1CCN(c2nccc3c(-c4ncc(Cl)cc4Cl)cccc23)CC1 — melting temperature (Protein-arginine deiminase type-2 (PADI2, Homo sapiens, UniProt Q9Y2J8); thermal shift; 0.9507 µM): 64 °C and 63 °C
CN(C)CCCSC(=S)N1CCN(C(=O)/C=C/c2coc3ccccc3c2=O)CC1 — MST response (Nucleoprotein (N, Tomato spotted wilt virus, UniProt P25999, Y184A); binding, microscale thermophoresis; 31.25 µM; dose series): 840 a.u.

For quick reference, copied from above:
COCC1CCCCN1C(=O)n1cc(C(O)(c2ccccc2)c2ccccc2)nn1 (stereo not drawn) — SILAC activity ratio (Pnpla8 (Mus musculus, UniProt Q8K1N1); probe labelling, inhibitor, competitive ABPP-SILAC; mouse T cells; concentration not given, 4 h, single peptide; reference: treated over DMSO cells, lower = stronger inhibition): 1.28 and 1.31
Cc1cc(C)cc(COc2cc3c(cc2OCc2cc(C)cc(C)c2)C2CC(O)(Cc4cn(CCOCCOCCOCCOCC(=O)Nc5cccc6c5C(=O)N(C5CCC(=O)NC5=O)C6=O)nn4)CC(C)N2CC3)c1 (racemic) — degradation (Rab GDP dissociation inhibitor beta (Homo sapiens, UniProt P50395); degrader, Western blot; PC-3; 2 µM, 24 h): 6%
